Published values from different studies.
Protocols differ between the studies behind these lines. Numbers after ± are the reported error.
gdpP residues 84-659: gdpP, residues 84-659 (Bacillus subtilis, UniProt P37484)
RMS3: RMS3 (Lathyrus oleraceus, UniProt A0A109QYD3)

Structure (SMILES) | target | assay | system | conditions | scale | measurement | value
Nc1ncnc2c1ccn2[C@@H]1O[C@@H]2COP(=O)(O)O[C@H]3[C@@H](O)[C@H](n4ccc5c(N)ncnc54)O[C@@H]3COP(=O)(O)O[C@H]2[C@H]1O | gdpP residues 84-659 | substrate, HPLC |  | 100 µM, 37 °C, upper limit if undegraded 24 h, added: enzyme 1 µM |  | degradation rate | 2.3 ± 0.2 mol/min/mol enzyme
O=C1SCCC1NC(C(=O)NCc1ccccc1)C1CC1 (stereo not shown) | TST (Homo sapiens, UniProt Q16762) | activator, measured: sodium thiosulfate |  | 34.2 µM, added: KCN 60 mM |  | Km | 43.9 ± 3.6 mM
CC1=CC(Oc2c(F)cc3c(C)cc(=O)oc3c2F)OC1=O (racemic) | RMS3 | enzyme activity, substrate, DiFMU release |  | pre-steady state |  | kcat/K1/2 | 233 M⁻¹ s⁻¹
CC(=O)NC(Cc1ccc(Br)c(Cl)c1)C(=O)N[C@@H](C)C(=O)N1CCC[C@H]1C(=O)N1CCC[C@H]1C(=O)N[C@@H](CCC(=O)O)C(=O)N[C@@H](Cc1c[nH]cn1)C(=O)N[C@@H](CO)C(=O)N[C@H](C(=O)N[C@@H](C)C(N)=O)[C@@H](C)OP(=O)(O)O (stereo partly shown) | MAP4K4 (Homo sapiens, UniProt O95819) | enzyme activity, inhibitor |  | 10 µM |  | inhibition | 5.45%
CC[C@H](C)[C@H](NC(=O)[C@H](Cc1ccccc1)NC(=O)[C@@H]1CCCN1C(=O)[C@H](CCCCN)NC(=O)[C@H](CCCCN)NC(=O)[C@H](Cc1ccccc1)NC(=O)[C@H](Cc1ccccc1)NC(=O)[C@@H](C)NC(=O)[C@@H](N)Cc1ccc(O)cc1)C(=O)N[C@@H](CC(C)C)C(=O)O | Ntsr1 (Rattus norvegicus, UniProt P20789) | GTPγS binding, agonist, radiometric |  | cell membranes |  | Emax | 104%
CC(C)C[C@@H]1NC(=O)[C@H](Cc2ccc(O)cc2)NC(=O)CNC(=O)[C@H](CO)NC(=O)[C@H](Cc2ccccc2)NC(=O)[C@H](CCCCN)NC(=O)[C@H](CC(N)=O)NC(=O)[C@H](Cc2ccc(O)cc2)NC(=O)CSC[C@@H](C(=O)NCC(N)=O)NC(=O)CNC(=O)[C@@H]2CCCN2C(=O)[C@H](CCCNC(=N)N)NC1=O | Epidermal growth factor receptor, with EGF (EGFR, Homo sapiens, UniProt P00533) | inhibitor, AlphaLISA |  | concentration not given |  | protein interaction inhibition | inactive
CC(=O)N[C@@H](Cc1c[nH]cn1)C(=O)N[C@@H](CCCNC(=N)N)C(=O)N[C@@H](CCCNC(=N)N)C(=O)N[C@@H](CCCNC(=N)N)C(=O)N[C@@H](CCCNC(=N)N)C(=O)N[C@@H](CCCNC(=N)N)C(=O)N[C@@H](CCCNC(=N)N)C(=O)N[C@@H](CCCNC(=N)N)C(=O)N[C@@H](CCCNC(=N)N)C(=O)N[C@@H](Cc1c[nH]cn1)C(N)=O | Albumin (ALB, Bos taurus, UniProt P02769) | fluorescence quenching |  | concentration not given |  | number of binding sites | 1.17
CC(C)C[C@@H](NC(=O)[C@H]1CCCN1C(=O)[C@H](N)CC(=O)O)C(=O)N[C@H](CCCCN)C(=O)N[C@H](C)C(=O)N[C@H](CCCNC(=N)N)C(=O)N[C@H](Cc1c[nH]cn1)C(=O)N[C@@H](C(=O)N[C@H](CO)C(=O)N[C@@H](C(=O)N[C@H](Cc1c[nH]c2ccccc12)C(=O)N[C@H](Cc1ccc(O)cc1)C(N)=O)C(C)C)[C@H](C)O | Microtubule-associated protein tau, repeat domain (MAPT, Homo sapiens, UniProt P10636, del597-597) | dynamic light scattering |  | 100 µM, 24 h, 10 µM tau, added: 2.5 µM heparin |  | aggregate diameter | 3000 to 4000 nm
CC1=C(C)[C@H](Oc2c(F)cc3c(C)cc(=O)oc3c2F)OC1=O | RMS3 | enzyme activity, substrate, DiFMU release |  | pre-steady state |  | kcat/K1/2 | 1970 M⁻¹ s⁻¹
O=C(O)c1cc(CCc2cc(O)ccc2O)ccc1O | CRISPR-associated endonuclease Cas9/Csn1 (cas9, Streptococcus pyogenes serotype M1, UniProt Q99ZW2) | enzyme activity |  | concentration not given |  | activity | inactive
CC(=O)N[C@@H](Cc1c[nH]c2ccccc12)C(=O)N[C@@H](CCC(=O)O)C(=O)N[C@@H](Cc1c[nH]cn1)C(=O)N[C@@H](CC(=O)O)C(=O)Nc1ccc2c(C)cc(=O)oc2c1 | Caspase-8 (CASP8, Homo sapiens, UniProt Q14790) | substrate cleavage, substrate, fluorogenic AMC release |  | enzyme 0.25 activity units/µL |  | Vmax | 280 ± 9.36 RFU/min
CC(C)P(=S)(NP(=[Se])(C(C)C)C(C)C)C(C)C | Alpha-amylase (Bacillus subtilis, UniProt P00691) | fluorescence quenching |  | concentration not given, pH 6.8, 310 K |  | ΔG of binding | -3.94 kcal/mol
Nc1ncnc2c1ncn2[C@@H]1O[C@H](COP(=O)(O)OP(=O)(O)OC[C@H]2O[C@@H](O)[C@H](O)[C@@H]2O)[C@@H](O)[C@H]1O | Protein mono-ADP-ribosyltransferase PARP14, macrodomain 2 (PARP14, Homo sapiens, UniProt Q460N5) | binding |  |  |  | -T*ΔS | 1.73 kcal/mol
O=C(Nc1cccc(-c2nn[nH]n2)c1)c1cc(-c2ccncn2)cc(C(F)(F)F)c1 | CTX-M-27 beta-lactamase | surface plasmon resonance |  |  |  | Kd/Ki difference | 2 to 3 fold
COc1ccccc1C(=O)Nc1cccc(-c2nc3ncccc3o2)c1 | Nucleoside transporter 1 (Plasmodium vivax, UniProt A5K8B0, D23E) | adenosine uptake, inhibitor |  | D23E mutant | baseline: D23E mutant over wild type | IC50 ratio | ~3.5 fold
Nc1nc2ncc(CNc3ccc(C(=O)N[C@@H](CCC(=O)NCCOCCOCCNC(=O)CN4CCN5CCN(CC4)CC(=O)[O][Al]([18F])[O]C(=O)C5)C(=O)O)cc3)nc2c(=O)[nH]1 | FOLR1 (Homo sapiens, UniProt P15328) | radioligand saturation binding | xenograft homogenates |  | baseline: KB over CAL-51 xenografts | Bmax ratio | 14 fold
COC(=O)C1=CO[C@@H](OC(C)=O)[C@@H]2C(Cn3cc(CCBr)nn3)=CC[C@H]12 | Cholinesterase (BCHE, Equus caballus, UniProt P81908) | enzyme activity, inhibitor, Ellman Lineweaver-Burk |  | added: butyrylthiocholine iodide |  | Ki | 30 µM
CC(C)[C@H](NC(=O)[C@@H](N)CO)C(=O)N[C@@H](Cc1ccc(O)cc1)C(=O)N[C@@H](CCC(=O)O)C(=O)N[C@@H](CO)C(=O)N1CCC[C@H]1C(=O)N[C@@H](Cc1ccc(OP(=O)(O)O)cc1)C(=O)N[C@@H](CO)C(=O)N[C@@H](CC(=O)O)C(=O)N1CCC[C@H]1C(=O)N[C@@H](CCC(=O)O)C(=O)N[C@@H](CCC(=O)O)C(=O)O | Ecdysteroid-phosphate phosphatase, PGM domain (EPP, Bombyx mori, UniProt Q7YTB0) |  |  | pH 7.5 |  | Km | 3.6 mM
O=C(CCCC[C@@H]1SC[C@@H]2NC(=O)N[C@@H]21)NCCCCCCCCN1[C@H]2[C@H](O)[C@@H](O)[C@H](O[C@@H]3OC[C@@H](O)[C@H](O)[C@H]3O)C[C@H]21 (stereo partly shown) | Exo-1,4-beta-xylosidase xlnD (xlnD, Emericella nidulans, UniProt Q5BAS1) | covalent inhibitor | Aspergillus nidulans | pH 4.5 |  | kinact/Ki | 3.33 M⁻¹ s⁻¹
Nc1nc(N)c2ncn([C@@H]3O[C@@H]4COP(=O)(O)O[C@H]5[C@@H](O)[C@H](n6cnc7c(N)ncnc76)O[C@@H]5COP(=O)(O)O[C@H]4[C@H]3O)c2n1 | gdpP residues 84-659 | HPLC |  | concentration not given | baseline: c-di-AMP, higher = slower hydrolysis | hydrolysis rate fold decrease | 2.2
O=C(O)COc1ccc(Cl)cc1 | Chloride channel protein (Torpedo marmorata, UniProt P21564, C212S) | chloride current, inside-out patch clamp |  | 20 mM, step to -140 mV |  | fast deactivation time constant | 0.9 ms
CC(C)CC(=O)NC1CCCC1=O (stereo not shown) | rhlR (Pseudomonas aeruginosa, UniProt P54292) | reporter gene, agonist, measured: rhlI-gfp fluorescence | PAO-JP2 reporter |  |  | maximal activation | 96%
CC(=O)N[C@@H](CC(C)C)C(=O)N[C@@H](CCC(=O)O)C(=O)N[C@@H](Cc1c[nH]cn1)C(=O)N[C@@H](CC(=O)O)C(=O)Nc1ccc2c(C)cc(=O)oc2c1 | Caspase-10 (CASP10, Homo sapiens, UniProt Q92851) | substrate cleavage, substrate, fluorogenic AMC release |  | enzyme 0.25 activity units/µL |  | Vmax | 1040 ± 77.5 RFU/min
CC[C@H](C)[C@H](NC(=O)[C@H](CCCNC(=N)N)NC(=O)[C@H](CO)NC(=O)[C@@H](NC(=O)[C@H](CC(=O)O)NC(=O)[C@H](CC(=O)O)NC(=O)CCCCCNC(=O)c1ccc2c(c1)C(=O)OC21c2ccc(O)cc2Oc2cc(O)ccc21)[C@@H](C)O)C(=O)N[C@@H](CCC(=O)O)C(=O)N[C@@H](CCC(=O)O)C(=O)N[C@H](C(=O)N[C@@H](CC(=O)O)C(=O)O)C(C)C | FKBP4 (Homo sapiens, UniProt Q02790) | binding, fluorescence polarization |  | pH 7.4, full-length protein | baseline: wild-type Hsp90α tracer | affinity decrease | ≥ 12 fold
C/C=C1\NC(=O)[C@H](Cc2ccccc2)NC(=O)[C@H](C(C)C)NC(=O)[C@H](Cc2ccccc2)NC(=O)[C@H](CCC(N)=O)NC(=O)[C@H](Cc2c[nH]c3ccccc23)NC(=O)[C@H]2CSC[C@@H](C(=O)N[C@@H](CO)C(=O)O)NC(=O)[C@H](CSC[C@H]3NC(=O)[C@H]([C@@H](C)CC)NC(=O)[C@H](NC(=O)[C@H](Cc4c[nH]cn4)NC(=O)[C@@H](NC(=O)[C@@H](NC(=O)CNC(=O)[C@H](CO)NC(=O)CNC(=O)CNC(=O)[C@@H](N)CCCCN)C(C)C)[C@@H](C)CC)[C@H](C)SC[C@H](NC(=O)[C@H](CCC(=O)O)NC(=O)[C@H](Cc4c[nH]cn4)NC3=O)C(=O)N[C@@H](CC(N)=O)C(=O)N[C@@H](CCSC)C(=O)N[C@@H](CC(N)=O)C(=O)N2)NC1=O | Integrin alpha-V/beta-3 (Homo sapiens, UniProt P05106+P06756) | fluorescence polarization competition |  | concentration not given, added: fluorescein-c(RGDyK) |  | binding | no binding
C=Cc1ccc(NC(=O)CSc2nnc(-c3cccnc3)n2CC)cc1 | Orco (Drosophila melanogaster, UniProt Q9VNB5) | calcium mobilization, agonist | HEK293 expressing Orco |  | baseline: VUAA1 maximum | efficacy | 57%
CCN(Cc1ccccc1)C(=O)CCc1nc(CN2CCN(C(=O)Cc3ccc(OC)c(OC)c3)CC2)no1 | Sodium channel protein type 11 subunit alpha (Scn11a, Rattus norvegicus, UniProt O88457) | sodium current, inhibitor, whole-cell patch clamp | rat DRG neurons | 30 nM, at -40 mV |  | current density | -14.6 ± 1.19 pA/pF
CN1CCc2cc(O)cc3c2[C@H]1Cc1ccc(O)c(O)c1-3 | Carbamate kinase (Giardia intestinalis, UniProt A8BB85) | enzyme activity, inhibitor, luminescence, ATP detection | Giardia lamblia |  |  | maximal inhibition | 90.7%

For quick reference, copied from above:
Structure (SMILES) | target | assay | system | conditions | scale | measurement | value
Nc1nc2ncc(CNc3ccc(C(=O)N[C@@H](CCC(=O)NCCOCCOCCNC(=O)CN4CCN5CCN(CC4)CC(=O)[O][Al]([18F])[O]C(=O)C5)C(=O)O)cc3)nc2c(=O)[nH]1 | FOLR1 (Homo sapiens, UniProt P15328) | radioligand saturation binding | xenograft homogenates |  | baseline: KB over CAL-51 xenografts | Bmax ratio | 14 fold
COC(=O)C1=CO[C@@H](OC(C)=O)[C@@H]2C(Cn3cc(CCBr)nn3)=CC[C@H]12 | Cholinesterase (BCHE, Equus caballus, UniProt P81908) | enzyme activity, inhibitor, Ellman Lineweaver-Burk |  | added: butyrylthiocholine iodide |  | Ki | 30 µM
